Measurements of several laboratories.
A part holds a random share of what one study measured.

Sample 1 — method: protein-binding microarray; form: double-stranded DNA, one strand shown; sample: in vitro; concentration: 2200 nM top; setting: 60-bp whole probe; with: salmon DNA 0.4 mg/ml; relative to: random background probes; reading: higher = stronger binding; endpoint: fitted relative affinity; all sequences stand within: GCCTAGCAC … GTCTTGATTCGCTTGACGCTGCTG
Target: Interferon regulatory factor 7, full length, phosphomimetic (IRF7, Homo sapiens, UniProt Q92985, residues 1-503, S471D/S472D/S475D/S476D/S477D/S483D/S484D/S487D)
Chain of UniProt Q92985 (whole entry, unmodified, looked up): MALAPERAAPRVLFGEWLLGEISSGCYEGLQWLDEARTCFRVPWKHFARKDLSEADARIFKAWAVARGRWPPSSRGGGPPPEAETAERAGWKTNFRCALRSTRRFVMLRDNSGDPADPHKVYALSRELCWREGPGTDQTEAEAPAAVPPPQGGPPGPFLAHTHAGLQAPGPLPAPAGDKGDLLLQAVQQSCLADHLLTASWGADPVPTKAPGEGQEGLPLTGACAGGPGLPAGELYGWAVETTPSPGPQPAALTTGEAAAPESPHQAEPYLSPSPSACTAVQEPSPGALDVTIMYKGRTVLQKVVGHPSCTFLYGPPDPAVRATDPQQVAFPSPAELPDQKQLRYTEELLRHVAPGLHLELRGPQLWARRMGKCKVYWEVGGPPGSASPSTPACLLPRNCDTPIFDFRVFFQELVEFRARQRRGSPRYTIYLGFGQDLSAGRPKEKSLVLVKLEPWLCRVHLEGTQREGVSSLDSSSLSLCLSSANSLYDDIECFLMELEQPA
TCAAATTTACTTTGGTTACTGTGCTAG: 0.297 z-score
GACTATATCAGTTTCGAGACGTGCTAG: 3.64 z-score
TTAGGTATCGAGTATCGGTTAGTGCTA: 0.538 z-score
CTCTCTTCACATATAATTTTGTGCTAG: 1.5 z-score
AACGATTTCAGTTCCGAGACGTGCTAG: 1.86 z-score
TTAGGATTCGGTCTCGGTTAGTGCTAG: 1.63 z-score
GACGGTCTCCTTATCCCGACGTGCTAG: 1.21 z-score
GAAAATTTCTTCCTCCCCCTGTGCTAG: 1.13 z-score
GTTTTACTTTCTATCTCTGTGTGCTAG: 6.44 z-score
GACGGTATCGGTATCGCGACGTGCTAG: 0.562 z-score
TTAGGTCTCCTACTGCTTCAGTGCTAG: 0.617 z-score
TTAGGTTGCGGTCTCGGTTAGTGCTAG: 0.634 z-score
GACGGACCGCTTTTCCTGACGTGCTAG: 0.624 z-score
TTAGAACCGAGACTGGATTAGTGCTAG: -0.279 z-score
GTTTGTATATATTTTAACCCGTGCTAG: 1.11 z-score
GACGGACTGGACTTTCGGGAGGTGCTA: 1.19 z-score
GACGATAACGGGTTTCGAGACGTGCTA: 1.07 z-score
GACGGTTTCATTCTCCTGACGTGCTAG: 3.88 z-score
GACGGTTTCGGACTAGGGACGTGCTAG: 3.35 z-score
GACGTTTTCGACTTTCGGGACGTGCTA: 8.41 z-score
TCAGCTTTGCCTTCAGCACTGTGCTAG: 1.08 z-score
GACGAGCTCAGTTTCGAGACGTGCTAG: 3.26 z-score

Sample 2 — method: RNA Bind-n-Seq; form: RNA; sample: in vitro; concentration: not given; setting: RNA with constant flanks, ends assumed; relative to: input RNA pool; reading: higher = stronger binding; endpoint: bound/input enrichment
Target: RING finger protein unkempt homolog, zinc fingers 1-6, GST-SBP tag (UNK, Homo sapiens, UniProt Q9C0B0, residues 30-357)
Chain of UniProt Q9C0B0 (30-357, looked up): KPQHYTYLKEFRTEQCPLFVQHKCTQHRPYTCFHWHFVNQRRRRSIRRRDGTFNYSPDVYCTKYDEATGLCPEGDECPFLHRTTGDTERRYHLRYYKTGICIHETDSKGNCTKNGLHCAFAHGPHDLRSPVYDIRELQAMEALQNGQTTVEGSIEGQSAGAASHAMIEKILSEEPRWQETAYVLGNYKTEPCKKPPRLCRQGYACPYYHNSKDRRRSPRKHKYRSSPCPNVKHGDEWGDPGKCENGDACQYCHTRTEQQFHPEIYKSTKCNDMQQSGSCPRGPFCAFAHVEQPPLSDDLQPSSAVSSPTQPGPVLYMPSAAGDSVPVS
All sequences stand within: GGGAGUUCUACAGUCCGACGAUC … CAACAGAGGAUUGAGCAUCA
CCACUAUCAGAAACAGAAAUGGCUCUGGGCAAGGAUGUGACUCCACCUCCAGAAACAGAAGCCGUUCUCAUCAAGAACGUAUGUCUGCCUCCAGAAAUGGAGGUGGCCCUGACUGAGGAU: 0.1 ratio
ACCUUCCUUGUAUUUUCCAAGGCUGAACUUGGUGCUCUUCCUGAUGAUUUCAUUGACAGUUCCGAAAAGACAGAUGAUGACAAGUAUAAAAUUACCUUAAAAUAUCCACACUAUUUCCCU: 0.584 ratio
CAUGCAGCUGUCUUUGUUUUGUUCUUGGUAGCUGUUACUGCUACAUGUUUACAGUACUUUCCGUUUUAAUUUCGAAGUAAGCUUUUCUGACAGACAUUUUGCAACAACUUGACUGUUGUA: 0.201 ratio
AAUACUGUUCCUGGAUAUGACUUUUUGGUGAAUUCUGUUUGGCCACAAAUAGUACAAGGAUCCGAAGAAAAGUUACCCUCGCUUUUUAAUCCUGGGAAUCCCGAUGCAUUUCAUGAGAAA: 0.211 ratio
GACGCCUCAGAUUUUGAGCAUAUCACUGCAGACACCCCGUCUCGGCCCCUGUCAGCCACCCGCAACCCUUUUAAGAGCUCCAAGGGCUCCCCUACUGGGAGCUCCCCAAACAAUGCAAGU: 0.373 ratio
UACUUUCAAAGAGCCCCAAGGGCUUAAUGACCCCAUUUGUAACUGAGAAAUGAUUCUUGUUUCCGUAAUCAUUCUAUAAAUGAUACUGCUGGAUUGAUUGCCGUGGGUUGAUAGCUGGAG: 0.271 ratio
ACUAACUCCUACUGCCGACGAACCGAAAAAUAAUUAAUGCAGAGGAGAUUUAUGUCUCCGCCAUAACUCCAGUUGUACAACUCAAUCGCCCCAUUCUCUUUUACGGUUCAAAAUGUACUG: 0.202 ratio
ACACCCUUGGCCAGCCUUUCUCCUGAAUAUCAGCUACCAAGAUCAGUACCAGUGGUGCCGUCUUUUGCCGCCAAUGACAGAGCAGAUAAAAAUGCUGCUGCCUAUUUUGAGGGUCAUCAU: 0.115 ratio
CUGUCUGAUAUCAUGGUCUCCCUGGCAAAUGCGUCAACUUUGCAGAAGGAUUGCAGUUGGACCGAAAUGAUAAGGAAAUUUGUAACAGAGACCCUUGAAGAUGGCUCUAGGCUAAAUAGU: 0.213 ratio
CAUGUUUAUAAUGUGCACAGAAAAAGCUUGAGAAUGAUAAUUUUGGUUUAAAUGUGCUGGUCCGUUGAUGUUAUGACUACUUUAAAUUUUAAGGAUUGUGACACACUCCUACUAUUGAAA: 0.285 ratio
ACAGAGCCGAGUAGCAAUAACAGUGAUGAUUGUCCAGGCAAGAGUGAAGACGACGAACACUCCGACCAAAUUCAAAGUAAAGACUCCUGUGAUGAGGGAAAUAAAGUGAACAGUAAUGUC: 0.186 ratio

Sample 3 — method: universal PBM; form: double-stranded DNA, one strand shown; sample: in vitro; concentration: 600 nM; reading: higher = stronger binding; endpoint: E-score
Target: Sal-like protein 4, full length isoform A (SALL4, Homo sapiens, UniProt Q9UJQ4, residues 1-1053)
Chain of UniProt Q9UJQ4 (whole entry, looked up): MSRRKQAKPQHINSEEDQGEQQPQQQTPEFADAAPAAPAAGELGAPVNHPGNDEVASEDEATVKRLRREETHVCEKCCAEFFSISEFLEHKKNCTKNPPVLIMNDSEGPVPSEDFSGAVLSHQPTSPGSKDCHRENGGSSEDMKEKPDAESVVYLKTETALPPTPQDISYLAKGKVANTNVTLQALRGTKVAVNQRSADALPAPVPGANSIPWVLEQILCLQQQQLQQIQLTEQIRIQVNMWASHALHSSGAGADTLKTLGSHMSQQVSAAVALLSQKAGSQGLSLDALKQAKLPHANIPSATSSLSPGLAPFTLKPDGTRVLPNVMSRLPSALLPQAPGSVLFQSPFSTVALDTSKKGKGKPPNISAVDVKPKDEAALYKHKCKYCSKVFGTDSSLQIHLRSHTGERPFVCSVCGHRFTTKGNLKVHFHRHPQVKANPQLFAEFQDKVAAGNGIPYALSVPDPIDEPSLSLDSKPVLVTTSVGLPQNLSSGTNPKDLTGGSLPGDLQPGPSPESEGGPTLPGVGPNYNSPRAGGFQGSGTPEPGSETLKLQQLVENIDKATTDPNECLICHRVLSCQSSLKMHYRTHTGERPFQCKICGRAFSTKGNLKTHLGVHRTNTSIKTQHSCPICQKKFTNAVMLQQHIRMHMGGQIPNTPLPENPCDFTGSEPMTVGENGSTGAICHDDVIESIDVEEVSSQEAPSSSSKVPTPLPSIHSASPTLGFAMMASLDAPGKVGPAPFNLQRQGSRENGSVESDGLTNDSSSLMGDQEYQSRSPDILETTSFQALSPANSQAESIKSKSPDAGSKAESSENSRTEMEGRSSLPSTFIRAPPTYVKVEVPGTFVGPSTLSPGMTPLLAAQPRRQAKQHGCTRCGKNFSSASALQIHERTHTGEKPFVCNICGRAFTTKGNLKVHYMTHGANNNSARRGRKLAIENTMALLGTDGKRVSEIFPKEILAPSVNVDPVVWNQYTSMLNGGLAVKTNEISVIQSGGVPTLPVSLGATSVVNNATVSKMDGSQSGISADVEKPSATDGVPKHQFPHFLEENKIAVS
Setting: 8-mer, flanks averaged, mean of replicates
CCTTCGTC: -0.0484
AGGGTGAC: -0.225
GGTAGTTA: 0.0134
CAAGGAGC: -0.0322
GGAATTAC: 0.0686
CTGGAAAC: 0.0914
AAAGGTAT: 0.149
ATCGTCAA: 0.127
CTCGTAAC: 0.018
GAGCAAAC: 0.00168
CCGACTCG: -0.192
AAAGGTCC: -0.21
CTATATGC: 0.291
CAGTATCA: 0.0755
CAGCGAGA: -0.17
CCAACCGC: -0.258
CATAGCTC: -0.0684
TAGATAAA: 0.293
CCTCATTC: -0.102
AGACCACT: -0.0244
ACTCCAAG: -0.0338
GATTGTCC: -0.0916
ACGATACC: 0.0303
ACCTTTTC: 0.106
ACGACAAC: -0.0667

Sample 4 — method: RNA Bind-n-Seq; form: RNA; sample: in vitro; concentration: 365 nM; relative to: no-protein control; reading: higher = stronger binding; endpoint: RBNS enrichment (R)
Target: RNA binding protein fox-1 homolog 2, RRM domain, GST-SBP tag (RBFOX2, Homo sapiens, UniProt O43251-10, residues 100-194)
Setting: natural RNA segment, single round, ends assumed
All sequences stand within: GGGAGUUCUACAGUCCGACGAUC … UGGAAUUCUCGGGUGCCAA
Construct (chain): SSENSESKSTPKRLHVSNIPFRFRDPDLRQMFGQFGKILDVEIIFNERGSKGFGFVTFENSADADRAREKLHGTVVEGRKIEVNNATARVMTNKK
CAGUGACCACUGAGGCCCCAUCGCUCCUCCGCUGGAAGCCGCCACGCCAGCCAGCCAGGCCGCAGCAGCAUCUGCCUCGAGGCUGCAGCUCCAGCCUGUAACCAGAUGUG: 0.508
UCUGUUCAAAUUUGCUUCCUUCAUGUCUUUUGAGACAGCAUCUCCUGAUUGAGUUCGCCUCACACCAGCAUCUUCCCUUAUUCUGUCUGCCUAAGCACAUAACUUUCAAG: 0.731
UACCUAUACAUACGUGCACACACACAUACAUAUUCAUACACAAUUCAUACACAUGCAAUCAUACAUGCACACUGACUCUGAACUGGGUGAACUCUGUGGAGGGAGGCCCA: 0.817
UCUGCCUCGCAAGAAGUCUCAGUGGAACUGACAGUUCCAAUAUAAUUACCCUCUCCUUUAUAAGAGCUUUCCUCUUUUAUCUUUUACCUGUAGAGACCUGAAAAUCCCAC: 0.54
GAUGAGUAAUUAUAAGUAACUGUAAUCGGUAGGGAGACAUGUUUUAACCUGGAUAUGUUAGAAAAGUAUCACGUGCCACCUGGGAAGAAGUUCUUUUCUGGCAACUGUCA: 0.368
UCCCCUGCCCCACCUCACCCACCCAGAGAAGCACAGACCCCGCCAGGGGCAGGGGCCCACCGCACACCCUUGUCCCGGGCCUGUCUGGGACUGGCCUUCCCGGCUCAGCC: 0.737
UGCAGGAUUAAGUUACAAUUAUCUUCUCAGUGAAGGUCAUUUGUGAUGGGGUCUAAUUCUUAUUACUUCAACAAAUAUUGUUUUGACUUGGGGGGAGGGGCUAUAACCCU: 0.677
GGCCUGCUGGGCUCUCCACCUCAGCCUUGGAUAAUGCUGUUGCCUCAUCUAUAACAUGCAUUUGUCUUUGUAAUGUCACCACCUUCCCAGCUCUCCCUCUGGCCCUGCCU: 0.711
CACGUCCCGCCGUUGGAGAAGGAGCGCGGGGGCGUUAGUGGACCCGCGCUCCCAUCCCCCACUCUCAGGGCUGGGGACUCGAAGGAGGCGGAGAGUAGACGGGGGCGACC: 0.302
CGGUCCUGGGCUCUCACCGGGGUCUGUCAUUGGCUCUGCACAGGCUGCAUGAACCCACGCACCUGUCCCUGACCUGCUGCUCUGGUCUCCUCACUAGCUCCAAUGUUCCC: 1.03
UCAAAAAAAAAAGGUGGGUAAAGGGCCAUGAGCCCAAACCACUAGGUUGUUCACCUUUUCAUCUGAAAAUGCUUUACUCUGACUAUGUGCUAUUGGGUUUUAUUUCCAGA: 0.455
CCCAAGUCACUACAGUUGGUUCUAUUGAAGCCAGUCUUUAAGAAACCUGGGUUAAAGACACCAGCACUUCUGCUUGCUGGGCUGGCUGGACCUGUGAAGCCAUGGGCAGG: 1.17

Sample 5 — method: protein binding microarray; form: double-stranded DNA, one strand shown; sample: in vitro; concentration: not given; relative to: not given; reading: higher = stronger binding; endpoint: E-score
Target: Histone acetyltransferase KAT6A, winged helix 2, GST fusion (KAT6A, Homo sapiens, UniProt Q92794, residues 85-181)
Setting: 8-mer, flanks averaged, mean of 2 arrays, mostly near background
Residues (chain): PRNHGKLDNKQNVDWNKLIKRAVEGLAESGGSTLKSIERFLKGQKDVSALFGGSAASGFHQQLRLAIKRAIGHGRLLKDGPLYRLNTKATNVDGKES
CGGCCTAG: -0.00228
GTCATTAA: 0.0157
AAAAGATG: -0.0217
AGCGGAAC: 0.0182
GAACCTTC: 0.0329
CAGGCCAC: 0.0616
ATCCTCTC: 0.0315
ATCTATAC: -0.0367
CGGGCATC: -0.0241
ACGCCGCA: 0.206
CTTTCGGA: -0.0572
GTTCCCAA: 0.0826
CTCCGACC: 0.0207
CCGAGAGA: 0.0827
CCATTCTA: -0.0626
AACTCCCA: -0.0793
AGACACGG: 0.109
